Measured values pooled from the literature.
Compare with care: the assays were run in different laboratories. ± gives the spread as reported. In brackets after ≈: the same amount, converted by molar mass.
CXCR4: C-X-C chemokine receptor type 4 (CXCR4, Homo sapiens, UniProt P61073)
Sequence of UniProt P11712 (whole entry, looked up): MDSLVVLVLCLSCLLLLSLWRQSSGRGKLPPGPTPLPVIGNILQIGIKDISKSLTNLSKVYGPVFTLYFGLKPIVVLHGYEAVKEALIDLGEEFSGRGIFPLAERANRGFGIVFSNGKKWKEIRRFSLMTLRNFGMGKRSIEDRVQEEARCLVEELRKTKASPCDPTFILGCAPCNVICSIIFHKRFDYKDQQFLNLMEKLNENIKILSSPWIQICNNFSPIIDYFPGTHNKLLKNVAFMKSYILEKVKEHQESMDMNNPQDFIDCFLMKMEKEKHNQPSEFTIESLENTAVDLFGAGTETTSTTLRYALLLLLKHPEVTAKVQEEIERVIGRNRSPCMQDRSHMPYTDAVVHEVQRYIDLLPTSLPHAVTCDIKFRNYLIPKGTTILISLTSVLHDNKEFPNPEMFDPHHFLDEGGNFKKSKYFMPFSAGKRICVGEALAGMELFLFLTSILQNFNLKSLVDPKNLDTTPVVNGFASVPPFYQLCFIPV

| SMILES | target or system | test | test system | setting | how to read | quantity | value |
| --- | --- | --- | --- | --- | --- | --- | --- |
| CC(=O)Oc1ccccc1C(=O)[O][Pt]([NH2])([NH2])([Cl])([Cl])[O]C(=O)C(Cl)Cl | PSN1 | – | – | 1 µM, 24 h | – | depolarised mitochondria cells | ~15% |
| COc1cc(CNC(=O)C[C@H](C)CCC=C(C)C)ccc1OCc1cn(-c2ccc(Cl)c(Cl)c2)nn1 | SN12C | SRB | – | 10 µM, 48 h | – | growth percent | 38.2% |
| [64Cu+2].c1ccc(CNCc2ccc(CN3CCCN4CCNCCCN(CC4)CC3)cc2)nc1 | CXCR4 | – | NOD/SCID mice, U87 xenografts, U87-stb-CXCR4 tumour | 240 min post-injection | – | tissue uptake | 19.6 ± 5.55 %ID/g |
| CC[C@H](C)C(=O)O[C@H]1C[C@H](O)C=C2C=C[C@H](C)[C@H](CC[C@@H](O)C[C@@H](O)CC(=O)O)[C@H]21 | hiPSC cardiac tissues 3D | active force | – | 15 min per concentration, paced at 1 Hz serum-free | – | minimum effective concentration | > 100 µM |
| NCC(=O)N1CCC[C@H]1C(=O)N1C[C@H](O)C[C@H]1C(=O)O | iron(III) ion | complex formation, from log β | aqueous 0.15 M NaCl | 37 °C, MAH−3 complex species | – | −ΔG | 0.507 kcal/mol |
| C=CC(=O)Nc1cc(Nc2nccc(-c3cn(C)c4ccccc34)n2)c(OCC(F)(F)F)nc1N(C)CCN(C)C | Cytochrome P450 2C9 (CYP2C9, Homo sapiens, UniProt P11712) | enzyme activity, inhibitor | human, liver microsomes | 0.33 µM | – | activity vs control | 105% |
| COc1cc(CNC(=O)C[C@H](C)CCC=C(C)C)ccc1O | NCI-H23 | SRB | – | 10 µM, 48 h | – | growth percent | 94.1% |
| CC/C=C\C/C=C\C/C=C\C/C=C\C/C=C\C/C=C\CCC(=O)Nc1ccn(C2OC(CO)C(O)C2(F)F)c(=O)n1 (centres unmarked) | KM12 | cell growth or viability, SRB | – | – | – | GI50 | 1050 nM |
| C(=C/c1ccccc1)/c1ccccc1 | KG-1a | caspase-3 activity, flow cytometry | – | 24 h | – | EC50 | > 50000 nM |
| COc1cc(CNC(=O)C[C@H](C)CCC=C(C)C)ccc1OCc1cn(-c2ccccc2Cl)nn1 | TK-10 | SRB | – | 10 µM, 48 h | – | growth percent | 93.1% |
| [64Cu+2].c1cnc(CNCc2ccc(CN3CCCN4CCNCCCN(CC4)CC3)cc2)nc1 | CXCR4 | – | NOD/SCID mice, U87 xenografts, U87-stb-CXCR4 tumour | 120 min post-injection | – | tissue uptake | 26 ± 4.53 %ID/g |
| N=C(N/N=C/c1cncnc1)N/N=C/c1cncnc1 | PANC-1 | crystal violet | – | 72 h | reference: IC50 IMR-90 over IC50 PANC-1 | selectivity ratio | 0.8 |
| COC(=O)CC[C@@H](NC(=O)[C@@H](Cc1ccc(OP(=O)(O)O)cc1)NC(=O)[C@@H](Cc1ccccc1)NC(=O)[C@@H](Cc1ccccc1)NC(=O)Cc1ccc2ccccc2c1)C(=O)OC | SAOS-2 | cell growth or viability, MTT | – | – | – | IC90 | 8.8 µg/mL (≈ 9.99 µM) |
| O=Cc1c(O)ccc2ccccc12 | HUVEC | RNA sequencing, refers to: LYVE1 | – | 75 µM, 24 h | reference: DMSO | log2 fold change | -3.89 |
| COc1cc(CNC(=O)C[C@H](C)CCC=C(C)C)ccc1OCc1cn(-c2ccccc2)nn1 | CAKI-1 | SRB | – | 10 µM, 48 h | – | growth percent | 93.2% |
| CCC(=C(c1ccc(Cl)cc1)c1ccc(OCCN(CC)CC)cc1)c1ccc(OC)cc1 | Ishikawa | estrogenic activity, agonist | – | 1 nM, 72 h, unit not given | reference: DMSO | alkaline phosphatase activity | 1.18 ± 0.67 |
| CO[C@H]1N(OC)c2ccccc2[C@@]12CN=C(Nc1cc(C(F)(F)F)cc(C(F)(F)F)c1)S2 (relative stereo) | HCT-116 | PI flow cytometry | – | concentration not given, 72 h | reference: untreated | sub-G1 cells | 33.6 fold |
| CC(=O)OC[C@H]1O[C@@H](Sc2sc(C(=O)c3ccc(C)cc3)c(N)c2-c2nc3ccccc3s2)[C@H](OC(C)=O)[C@@H](OC(C)=O)[C@@H]1OC(C)=O | CAKI-1 | SRB | – | 10 µM, 48 h | reference: untreated | growth | 53.7% |
| CCCCCCCCCCCCCCCCCCOc1ccccc1CCOP(=O)([O-])OCC[N+](C)(C)C | nine NSCLC cell lines | – | – | 10 µM | – | mean growth inhibition | 27.7% |
| COc1cc(CNC(=O)C[C@H](C)CCC=C(C)C)ccc1OCc1cn(-c2ccccc2F)nn1 | SK-OV-3 ovarian cancer cells | SRB | – | 10 µM, 48 h | – | growth percent | 43.6% |
| C=CCc1ccc(O)c(-c2cc(CC=C)ccc2OCCCCCCCCCC[P+](c2ccccc2)(c2ccccc2)c2ccccc2)c1 | A-375 | HPLC, refers to: 2-hydroxyethidium | – | 0.5 µM, 24 h | – | hydroethidine oxidation products | increased |
| COC(=O)CCC(=O)Oc1ccc(/C=C/C(=O)CC(=O)/C=C/c2ccc(O)c(OC)c2)cc1OC | MHCC97H | cell growth or viability, MTT | – | 100 µg/mL, 96 h | – | inhibition | 71.8% |
| CCCCCCCCCCCCCCCCCCCCCCCCCCCCCCOC(=O)/C=C/c1ccc(O)cc1 | J774.2 | inhibitor | – | concentration not given, added: LPS | – | nitric oxide production | inactive |
